# Published values collected from several papers.
# Each numbered part is a random draw from the data of one study; scales do not carry over between parts. Changes are numbered by the printed parent chain.

# Sample 1 — technique: RNA Bind-n-Seq; molecule type: RNA; matrix: in vitro; tested at: 365 nM; reference: no-protein control; reading: higher = stronger binding
# Target: RNA binding protein fox-1 homolog 2, RRM domain, GST-SBP tag (RBFOX2, Homo sapiens, UniProt O43251-10, residues 100-194)
# Setting: natural RNA segment, single round, ends assumed
# Residues (chain): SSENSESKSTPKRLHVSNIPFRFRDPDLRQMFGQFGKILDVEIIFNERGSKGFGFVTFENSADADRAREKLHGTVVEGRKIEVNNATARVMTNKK
Oligonucleotide,RBNS enrichment (R)
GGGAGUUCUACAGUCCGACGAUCUUCCAAAUGAGAUUUAGAUUUGUUUUUCUCAUGCAUAAAUGAUUUUAAUUCAGUUUUAACCAGUGAAAACUCGUGGUUUUUCUGAAAGAAAAAAGAAAAGGGUUUCCUAUUGGAAUUCUCGGGUGCCAA,1.12
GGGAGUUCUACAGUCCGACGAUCUGAACAGAAGGGAUUUGAGAAGAGGAAAGGAAGAAGAAAUGAAUGGCUCAGGCCUUGGACAGUCCAACAUUAAAGUCAACAUGCUGAUCUCUCCAUUCCUGGUUCAGGGUUGGAAUUCUCGGGUGCCAA,0.583
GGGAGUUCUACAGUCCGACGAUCAGUCUGCAUGUGCGUUGAUUCUGUAGAGCUGUUAGUGGCUUAGUUUUUAAACUCCUAUUGGGGAGUAGGUAUUAAUAACUUAUUCCUGUAAGUUGGUUUUCUUAUUUGUUUGGAAUUCUCGGGUGCCAA,39.9
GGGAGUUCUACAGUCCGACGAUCAAUCCUAGCAGGAGAGAGGCUCUGGGGCAGCCCCCAUGGGCUCCUGCCCCUUUCAGGCCUACAGCCACAUCCCCAAGCCCACCAGGUGUCAGGAUAGUCACAGUGAUACCUGGAAUUCUCGGGUGCCAA,0.327
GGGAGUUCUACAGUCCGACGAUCGUGUGAACUGUCCUGUGAGCUUUAUGUCAGGAGACUGUGACCUUCAUGUCCAGCUUCAAAGAGUUGUGCAUGAACUCGGUAAUACACAUCACACGGCUGAGAGUCCCCUUUGGAAUUCUCGGGUGCCAA,0.456
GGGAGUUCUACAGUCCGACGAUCUGUUUUCAAGUGUGGGGAGGAUAUGAAAAUGUUCUGUUCUCACUUUUGGCUUUAUGUCCAUUUUACCACUGUUUUUAUCCAAUAAACUAAGUCGGUAUUUUUUGUACCUUUGGAAUUCUCGGGUGCCAA,0.238
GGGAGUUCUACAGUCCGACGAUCACUUGCAGUGUAAAAGGAGGAAAGGGGUGGAAAAAACCGAAUUUCUGCAUUUAACUACAAAAAAAGUUUAUGUUUAGUUUGGUAGAGGUGUUAUGUAUAAUGCUUUGUUAUGGAAUUCUCGGGUGCCAA,0.779
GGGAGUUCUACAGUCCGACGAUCGGCUGGGACAGGCUUUGAUUUUGAGGGUUAGCAAGACAAAGCAAAUAAAUGCCUUCCACCUCACCGCAAACCUUCUGCUAAAUUGCAUGACCAGGCUUUCCAAAAACAAGUGGAAUUCUCGGGUGCCAA,1.44
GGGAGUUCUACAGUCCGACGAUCAACAGUAUCUAAUUAUAAAUUAGCUGUAGAUAUCAGGUGCUUCUGAUGAAGUGAAAAUGUAUAUCUGACUAGUGGGAAACUUCAUGGGUUUCCUCAUCUGUCAUGUCGAUUGGAAUUCUCGGGUGCCAA,0.296
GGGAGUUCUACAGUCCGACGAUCUUUUUCUGUAAAUAAAUUUGCAUAUUUUGUAGGACUUUUAAUUGUAAUGAUAGAGAAAAAACAAGGAAAACUAUUUAAUGAAAGCACGAUAUUUAUCUUUGGUAAAUGACUGGAAUUCUCGGGUGCCAA,4.05
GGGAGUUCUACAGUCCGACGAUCUUAAGCUGUCGACCUUUAGUUUGCCAUACGGGUAGGACUGUAUUUCAUGUUAACAACUGGUGGUAAUGAUAAGCCUUCUUCUAGCGUAUUUUCUCUUCUUUCCUGUCACUUGGAAUUCUCGGGUGCCAA,0.672
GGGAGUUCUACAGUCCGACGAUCUUUCUAAAGCUGAAUGUCAAACAGUGCCAAAUGCUGGGGCAGGGGGUGAAGAACCCUCUGUCCCACCCCUAGCCACCAGUGUCCUCCAAGUGCCCCCUCACCUCUCCAGGUGGAAUUCUCGGGUGCCAA,0.171

# Sample 2 — target: CCNB2, cyclin fold, Cln2 fusion (human); technique: yeast growth competition, sequencing; matrix: yeast; setting: weak parent motif; reference: not given; reading: higher = stronger binding
# Starting sequence: PKN2 docking peptide (human); VSAVQKLDFSDTM; partner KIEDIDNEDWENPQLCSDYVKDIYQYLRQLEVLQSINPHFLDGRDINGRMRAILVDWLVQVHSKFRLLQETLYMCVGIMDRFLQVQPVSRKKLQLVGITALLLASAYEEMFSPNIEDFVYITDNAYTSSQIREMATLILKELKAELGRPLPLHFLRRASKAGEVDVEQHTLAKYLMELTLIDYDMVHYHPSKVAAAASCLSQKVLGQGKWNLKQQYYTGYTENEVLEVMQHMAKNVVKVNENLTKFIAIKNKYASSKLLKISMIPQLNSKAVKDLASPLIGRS
Substitution,normalised enrichment score
VQAVQKLDFSDTM [S2Q],0.0648
VSYVQKLDFSDTM [A3Y],0.183
VSAVQKRDFSDTM [L7R],-0.278
VSAVQKLDFSSTM [D11S],-0.0298
VSAVQKLDFLDTM [S10L],-0.518
VSEVQKLDFSDTM [A3E],-0.354
VSAGQKLDFSDTM [V4G],-0.886
VMAVQKLDFSDTM [S2M],-0.0632
VSAVQKLDFSDLM [T12L],0.296
VSAVQKLDYSDTM [F9Y],0.238
VSAVQALDFSDTM [K6A],-0.307
VSAVQRLDFSDTM [K6R],-0.174
VSAVQKLRFSDTM [D8R],-0.035
VSAQQKLDFSDTM [V4Q],-0.117
VSAEQKLDFSDTM [V4E],-0.169
VSAVQKLDASDTM [F9A],-0.0464
VSAVRKLDFSDTM [Q5R],0.805

# Sample 3 — technique: protein binding microarray; molecule type: double-stranded DNA, one strand shown; matrix: in vitro; tested at: not given; reference: not given; reading: higher = stronger binding
# Target: Histone acetyltransferase KAT6A, winged helix 2, GST fusion (KAT6A, Homo sapiens, UniProt Q92794, residues 85-181)
# Setting: 8-mer, flanks averaged, mean of 2 arrays, mostly near background
# Residues (chain): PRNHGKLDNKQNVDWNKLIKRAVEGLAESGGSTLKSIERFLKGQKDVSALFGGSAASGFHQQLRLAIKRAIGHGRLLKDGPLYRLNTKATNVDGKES
Oligonucleotide,E-score
CAATTACA,0.0272
ACGCTGTC,0.0519
CGATTTCC,0.0861
ACGGTTGA,-0.0244
CTTCCTCC,0.0961
GTGGTAAC,0.0434
GCGCGGAC,0.152
GTTATTGA,0.083
CAGGTACC,-0.0645
AAACTAAC,0.00594
ATTCTAAG,-0.0891
GTGATAGA,-0.0311
ATAGTAAA,-0.0407
AGTTCAGA,0.0556
AGTGTGCC,0.101
GAGCCGCC,0.129
AAATTCAT,0.134
TACGGTGA,0.0475
CAAAAGCA,0.043
ACATTGCA,-0.0828
TGGTTACA,-0.103
ACATGTCC,-0.176
GCATCAGC,0.179
TCCCGTAA,0.0118
TCCTATCA,-0.0313

# Sample 4 — technique: RNA Bind-n-Seq; molecule type: RNA; matrix: in vitro; tested at: not given; reference: input RNA pool; reading: higher = stronger binding
# Target: RING finger protein unkempt homolog, zinc fingers 1-6, GST-SBP tag (UNK, Homo sapiens, UniProt Q9C0B0, residues 30-357)
# UniProt Q9C0B0, sequence (30-357, looked up): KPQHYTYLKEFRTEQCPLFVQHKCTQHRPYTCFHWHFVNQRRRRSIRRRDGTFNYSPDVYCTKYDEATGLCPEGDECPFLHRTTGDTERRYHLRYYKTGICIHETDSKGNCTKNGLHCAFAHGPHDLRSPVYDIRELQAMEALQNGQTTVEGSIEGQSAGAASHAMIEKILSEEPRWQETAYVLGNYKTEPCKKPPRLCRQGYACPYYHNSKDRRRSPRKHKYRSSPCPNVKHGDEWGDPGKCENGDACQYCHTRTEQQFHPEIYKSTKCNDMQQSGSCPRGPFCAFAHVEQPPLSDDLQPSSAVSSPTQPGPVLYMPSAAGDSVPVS
# Setting: RNA with constant flanks, human-mouse chimeric sites, ends assumed
Oligonucleotide,bound/input enrichment [ratio]
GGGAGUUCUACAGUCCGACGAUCGGACAUCUGUCAAAUUGUUAUGUUCCUGUGAAACAAGUGAACACUCUUCAUAUACUAAUUUAGUUGUACAUCUGUAUGAUAGAGAAAUGUAAAUAUGUUAAUCCAAGCAAUGUGUCACUUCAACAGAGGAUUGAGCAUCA,0.482
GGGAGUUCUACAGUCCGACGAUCCCAAGUGAUUCAUCCCAAGGACAGGCAACCCCAUUUGAUGCCUGGACUGAUGACAGUAUGGAAGGGCCUAGUCAAAAUGUUGAAGCUGAGUCAAUUCAGGAUGCCAUGAGUAUGGAAGAGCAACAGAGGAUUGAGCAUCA,0.277
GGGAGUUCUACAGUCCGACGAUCCAGGGCACAGCACCUACCCCCUCCUCCUUUCCACACCUGCAAACUCUUUUGCCUGGGCUGAAUAUUUAGUGUAAUUACAUCUCAGCUUUGAGGGCUCCUGUGGCAAAUUCCCGGAUUAAACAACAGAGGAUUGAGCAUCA,0.529
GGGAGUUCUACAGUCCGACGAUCAAAGAGUGGAUAGAGUGUGCACACGGGAUCGGUGGGACUCGGGCAGAAAAGGAGUGCAAGAUAGAGUUCGAUGACUUCGAAGAGUGCUUGCUUCGGUACAAAACGAUGAGGCGAAUGCAUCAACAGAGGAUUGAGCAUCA,0.292
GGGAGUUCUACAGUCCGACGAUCGCCACCAGAUCCCAGAAACAUGACCCUUGCUGCCUACAAAGAGAAGAUGAAGGAGCUCCCGCUGGUGUCUCUGUUCUGCUCUUGCUUCCUGGCCGAUCCCCUGAAUAAGUCGUCCUACAACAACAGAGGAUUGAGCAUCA,0.174
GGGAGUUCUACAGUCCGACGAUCGAUAAGAAAAGCUUGUUGGAGACCCGCUUGCAUGUCACUGGUAGAGAACUGAGGUCCCAAAUAGCUGAAACUUUCGGAUUUCAAGAAAAUUACAUCAAGAUCGUAAUAAAUAAGAAACAGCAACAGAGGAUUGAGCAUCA,0.388
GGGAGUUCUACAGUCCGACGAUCCUCAGAGAUGUGGCAUAUCAGUAUGUGAAAAAGGGGGCUCGUAUAUUUGUGGAAGGGAAAAUAGACUAUGGCGAGUACAUGGAUAAAAACAAUGUGAGGCGACAAGCAACAACAAUCAUACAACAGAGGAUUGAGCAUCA,0.449
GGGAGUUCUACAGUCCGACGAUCAGAUUCCCCCUCCUGAGGCCUUCUCCAAAAUUGGCAUCUCUUACAGAUGCCUCAUCCCCUGUUAGCGUUUUAGUUUGGACCACCCAGCCUUGGACAAUUCCCGCCAACCAGGCAAUUUGCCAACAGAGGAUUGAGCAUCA,0.913
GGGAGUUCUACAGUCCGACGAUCUUAAUCCCCUUUACUGCUCCCCCACUUCUCAUGGUAAUAACAAAGUCUUAUAUUCCCGUCCUAGCUUUCACUCAGAUGGCUUAUGGAGCCGGUUUCCUAUCUUUCUUGGGAGGGAUCAGACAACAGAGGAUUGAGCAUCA,0.208
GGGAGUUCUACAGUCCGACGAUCACCUCCCCCUCCCGCCUCACCCCACCCCCGCUUUUUGGAAAGUUUUUGGCUUUUUUUUUCCUUCCCCAGUUAGAAUUAUUACAGUUUCCCCCGCAAGGGUCUAUCGAAGGGCUUGACGGACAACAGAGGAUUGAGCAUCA,11.1
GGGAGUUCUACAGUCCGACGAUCGAUCCACAGUGGUCUGAGGAGCAACUCAUUGCUGCAAAAUUCUGUUUUGCUGGACUUGUUAUAGGGCAGACUGAAGUGGACAUCAUGAGUCAUGCCACACAGGCUAUUUUUGAAAUUCUGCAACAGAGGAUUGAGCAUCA,0.209

# Sample 5 — technique: universal PBM; molecule type: double-stranded DNA, one strand shown; matrix: in vitro; tested at: 600 nM; reading: higher = stronger binding
# Target: Sal-like protein 4, full length isoform A (SALL4, Homo sapiens, UniProt Q9UJQ4, residues 1-1053)
# UniProt Q9UJQ4, sequence (whole entry, looked up): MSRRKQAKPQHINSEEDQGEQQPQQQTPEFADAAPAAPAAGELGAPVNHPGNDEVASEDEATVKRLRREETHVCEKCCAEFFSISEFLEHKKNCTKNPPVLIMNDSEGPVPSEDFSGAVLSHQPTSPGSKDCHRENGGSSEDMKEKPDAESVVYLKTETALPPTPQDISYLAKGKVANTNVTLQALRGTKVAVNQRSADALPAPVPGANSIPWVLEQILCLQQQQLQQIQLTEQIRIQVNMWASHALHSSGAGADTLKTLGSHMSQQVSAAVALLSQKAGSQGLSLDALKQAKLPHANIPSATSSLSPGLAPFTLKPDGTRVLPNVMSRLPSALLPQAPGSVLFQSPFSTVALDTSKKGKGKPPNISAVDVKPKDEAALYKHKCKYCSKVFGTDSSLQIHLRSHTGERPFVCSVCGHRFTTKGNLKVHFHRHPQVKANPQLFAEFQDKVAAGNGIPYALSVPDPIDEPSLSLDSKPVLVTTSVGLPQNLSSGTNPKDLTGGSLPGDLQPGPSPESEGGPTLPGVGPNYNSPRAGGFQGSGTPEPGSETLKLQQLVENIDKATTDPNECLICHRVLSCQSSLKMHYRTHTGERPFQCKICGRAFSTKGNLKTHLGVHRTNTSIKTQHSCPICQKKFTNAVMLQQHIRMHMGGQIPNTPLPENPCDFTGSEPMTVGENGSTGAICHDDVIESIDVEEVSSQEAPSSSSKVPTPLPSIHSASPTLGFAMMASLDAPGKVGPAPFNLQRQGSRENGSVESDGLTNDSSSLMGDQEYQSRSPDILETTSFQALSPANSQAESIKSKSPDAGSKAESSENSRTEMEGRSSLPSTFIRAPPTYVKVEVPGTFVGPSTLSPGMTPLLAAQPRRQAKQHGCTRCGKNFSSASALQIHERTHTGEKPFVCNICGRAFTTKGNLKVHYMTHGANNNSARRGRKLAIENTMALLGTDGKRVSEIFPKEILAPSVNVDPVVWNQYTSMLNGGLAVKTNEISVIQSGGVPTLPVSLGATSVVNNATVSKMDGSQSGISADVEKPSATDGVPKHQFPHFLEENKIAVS
# Setting: 8-mer, flanks averaged, mean of replicates
Oligonucleotide,E-score
GATTCGTA,0.091
AATCTGCA,0.0793
GTTCTTGA,0.14
ACCCGGAG,-0.263
CCAGTGAA,-0.0229
CCGGCGGC,-0.333
GGCCACAA,-0.259
ACCGCACA,-0.224
AAGTAGGG,0.0802
CCCTTGAC,-0.2
AGATACGA,0.137
GCTGGCGA,-0.26
GGGGCGTA,-0.202
ACGAGAGT,0.0695
AAATTGGA,0.315
CCCCAGCG,-0.364
CTTCCTGC,-0.198
CAATGACC,-0.116
ACCCGCCA,-0.129
CTCGTCCC,-0.184
CAACGTTC,0.0293
ATCCCCGG,-0.387
CCGCTACG,-0.277
CCGACAAC,-0.137
ACTAGATG,0.074

# Excerpt of the above (sample 5):
Oligonucleotide,E-score
AAGTAGGG,0.0802
CCCTTGAC,-0.2
AGATACGA,0.137
GCTGGCGA,-0.26
GGGGCGTA,-0.202
ACGAGAGT,0.0695
AAATTGGA,0.315
CCCCAGCG,-0.364
CTTCCTGC,-0.198
CAATGACC,-0.116
ACCCGCCA,-0.129
CTCGTCCC,-0.184
